Experimental data from different studies.
Parts stem from different laboratories: compare values within a part only.

Series 1 — method: protein binding microarray; form: double-stranded DNA, one strand shown; sample: in vitro; tested at: not given; reference: not given; direction: higher = stronger binding; quantity: E-score
Target: Histone acetyltransferase KAT6A, winged helix 2, GST fusion (KAT6A, Homo sapiens, UniProt Q92794, residues 85-181)
Setting: 8-mer, flanks averaged, mean of 2 arrays, mostly near background
Target sequence (chain): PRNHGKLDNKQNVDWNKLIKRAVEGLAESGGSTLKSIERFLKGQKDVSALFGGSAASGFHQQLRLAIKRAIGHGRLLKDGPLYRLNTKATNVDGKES
AAGCTTAC: -0.0287
ATCTTGTG: -0.0703
AATGTGAT: -0.0874
AGCCTCTC: -0.165
AGTATGTC: -0.156
ACTCGTTA: -0.168
CGGTCTCC: 0.0677
CGGACAAA: -0.000605
ACCAACCT: 0.0709
AAGCTACG: -0.0957
GCTAATCA: 0.161
GGTTACTA: -0.0771
CCGATGTC: -0.0797
GACCGCGC: 0.118
AAGCAGGC: 0.0219
GAGAACCC: -0.184
GCTTCCAA: 0.116
AAACTGAG: -0.036

Series 2 — method: RNA Bind-n-Seq; form: RNA; sample: in vitro; tested at: 365 nM; reference: no-protein control; direction: higher = stronger binding; quantity: RBNS enrichment (R)
Target: RNA binding protein fox-1 homolog 2, RRM domain, GST-SBP tag (RBFOX2, Homo sapiens, UniProt O43251-10, residues 100-194)
Setting: natural RNA segment, single round, ends assumed
Shared flanks, not repeated: GGGAGUUCUACAGUCCGACGAUC … UGGAAUUCUCGGGUGCCAA
Construct (chain): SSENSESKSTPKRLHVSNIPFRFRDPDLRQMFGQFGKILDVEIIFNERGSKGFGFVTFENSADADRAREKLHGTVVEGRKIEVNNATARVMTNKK
AAUCAUGUAUCUCUUAGAGAAGAAAAUUCUAUGCCCUACCACAUCACAAGAUCUCCUCCUCAGUGUCUGUCUGUCUGUCUGUCUGUCUGCCUGGCAUCUGAUGGGUCAGG: 0.434
UUCUGUGACCUUUGAAGCCAGUCUCAGUGGUUUAGGCAGCUUUGCAGUUCUAACUCUAGCUAGAGGCCAGGCUGUGUGCAGAGCUAAAGCACAAAUGAGCAGUACAUCAG: 0.314
AGUAUUUCAUAUUUAUAAAUAUGCGUUUAUUUAAAAGGAGAACAAAAGCUUGACUCUGAUUCACAGUUUUGUAUGUAGCUGGUUUGACGUAGUCUUUUGUAUUUUCCCUG: 4.02
UCUUUAUAUAUGUUGAAUUAACAAAUAUUUUGAGUUUCUGAGAAAAAACAAAACAUAUUAAUGGUAUUGAAAUGUGUUAGUAGUCUGGCUGUGUGCCCAAAAUUCUGUUU: 0.456
CGAAAGAUUAUUUCCUGUGUUUGCUUUGAUUUGUUCCUCAGUACAUUAAAAUGAUCCACACCUUGAACACUGCCCUCUCUAGAAGGUUGAUUUUGAUCAGCCUUUUGAAG: 0.289
UUGUGAGAAACCUCUUUUCUUUAAAAUUUACAUAAUCACAAGAAAGGAAAGAAUUACAGUUGGACUGAUUGUGACAGUGCCUUGUCGUCCUCUUUGAAACACCCCGUGUU: 0.499
UCACACGCUGUAUGGAAGGGUGUGGGUGUGUGUGAAGGGGCGAGUGGAGACACUGUGUGUAUCUCUAGAUAAGAAGAUAUGCACCACGUUGAAAAUACUCAGUGUAGAUC: 0.479
CCGGCUUUGCCUGCCACCUCUGCCCAGGACACUCUUCCCUCUCGGGAUGUGUGAUGAACUCCCAGGAGAGGGAAGAUGGGAGCCAGGGCAAGAUAGGAAGCUCUGCCUGA: 0.477
GGAGGACUCCGGUCUUAACUCCCACGCUAACUUUAGCUCAAGUGGAGUUUUCACCGUGGUCAUUUCUACCUCCGGAGCAAGGUGCCAGCGCCAGUACUAGAGCCUGCUUA: 0.26
AAUGUUUGAUAUUUUAUACCAGCUUAUGAGCUCAAAGUACUACAGCAAAGCCUAGCCUGCAUAUCAUUCACCCAAAACAAAGUAAUAGCGCCUCUUUUAUUAUUUUGACU: 0.878
UGAGAGCCUGGCCAGGUGGCCCUCCGUGUGAGGUCAUGGUCACAGCAUAGUUUGGAGCUAGGGAGGGACUGUCAGCCUGGAGGUUUGGAGACUCAUUCUGGAAUCUAGUG: 2.5
UGUCCCUUUUUGGUUUCUGGAAAGAUUCUUUGUCAACAUUAGUAACUGAUACAUAGAACCAAGGAGCACUCAAAUAGGGAGCCAGGAGCCAGGGAGCUGGUGACACUUGU: 0.362

Series 3 — method: RNA Bind-n-Seq; form: RNA; sample: in vitro; tested at: 20 nM; setting: 6-mer, flanks averaged, single round; added: 150 mM LiCl; reference: input library; direction: higher = stronger binding; quantity: 6-mer enrichment (R)
Target: TAR DNA-binding protein 43, full length, His tag (TARDBP, Homo sapiens, UniProt Q13148, residues 1-414)
UUGCCA: 0.951
UACGGG: 0.99
UGGAUA: 0.945
GCACUC: 0.874
CCAUAG: 0.88
UGCACU: 0.892
UGAUAU: 0.954
ACAGUC: 0.798
CGUUUG: 1.06
CGCAAG: 0.876
UAAUUG: 1.02
CUGUAA: 0.904
GGGAAG: 1.18
CGCUAU: 0.897
GCCUAG: 0.909
GAACAC: 0.836
CAAUAC: 0.837
CGACCC: 0.938
CAGAAG: 0.88
UGUUAG: 1.22
AGAGCA: 0.923
AGUACU: 0.824
ACAUAU: 0.906
CUCACC: 0.917
GCCGGA: 0.975

Series 4 — method: protein-binding microarray; form: double-stranded DNA, one strand shown; sample: in vitro; tested at: 250 nM; setting: 60-bp whole probe; added: salmon DNA 0.4 mg/ml; reference: random background probes; direction: higher = stronger binding; quantity: log fluorescence; shared flanks, not repeated: GCCTAGCAC … GTCTTGATTCGCTTGACGCTGCTG
Target: Interferon regulatory factor 5, full length, phosphomimetic (IRF5, Homo sapiens, UniProt Q13568-2, residues 1-514, K96S/S451D/S453D/S456D/S462D)
TTAGGTTTCCTTATCCTTAAGTGCTAG: 1.16 z-score
TCATATATCCATTATAGACTGTGCTAG: 0.544 z-score
TTAGGTATCGGTTTCCGTTAGTGCTAG: 8.38 z-score
GAGGGACTGGGGACTGGGGACGTGCTA: -0.904 z-score
TTAGGTATCGGTATCGTTTAGTGCTAG: 8.2 z-score
TTAGATCTCAGATTGGATTAGTGCTAG: 0.0105 z-score
ATAGATATGCCAAATCTGTGTGTGCTA: -0.0836 z-score
TTAGAACTGGGGTTTCGCTTAGTGCTA: 2.39 z-score
TTAGCTCTCCTTTTCCTTTAGTGCTAG: 0.618 z-score
TCACTGATCCATTTTGGACTGTGCTAG: -0.025 z-score
TCACCTCTAGGTTTTCTACTGTGCTAG: 0.361 z-score
TCATATATACCTGTATAACTGTGCTAG: 0.373 z-score
TCACTTCTCTTTTGGCTACTGTGCTAG: 1.48 z-score
TCACATGTGCCTTTATAACTGTGCTAG: 0.0811 z-score
TTAGGACTGGGGTTTCGGTGAGTGCTA: 4.11 z-score
GACGGACTGGACTATCTGGACGTGCTA: -0.203 z-score

Series 5 — method: RNA Bind-n-Seq; form: RNA; sample: in vitro; tested at: not given; reference: input RNA pool; direction: higher = stronger binding; quantity: bound/input enrichment
Target: RING finger protein unkempt homolog, zinc fingers 1-6, GST-SBP tag (UNK, Homo sapiens, UniProt Q9C0B0, residues 30-357)
Setting: RNA with constant flanks, human-mouse chimeric sites, ends assumed
Shared flanks, not repeated: GGGAGUUCUACAGUCCGACGAUC … CAACAGAGGAUUGAGCAUCA
Residues (chain): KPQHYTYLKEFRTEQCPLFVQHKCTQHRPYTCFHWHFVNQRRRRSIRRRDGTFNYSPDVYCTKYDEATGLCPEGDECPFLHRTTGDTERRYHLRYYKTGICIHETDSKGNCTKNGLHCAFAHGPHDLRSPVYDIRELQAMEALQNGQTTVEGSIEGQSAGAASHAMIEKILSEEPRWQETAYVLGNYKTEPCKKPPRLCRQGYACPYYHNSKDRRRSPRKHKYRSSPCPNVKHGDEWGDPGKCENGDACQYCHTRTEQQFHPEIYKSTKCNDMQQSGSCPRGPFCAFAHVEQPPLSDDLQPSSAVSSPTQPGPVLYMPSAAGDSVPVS
AAAGAGUGGAUAGAAUGUGCACACGGGAUCGGUGGGACCCGGGCGAAAAAGGAGUGCAAGAUAGAAUUCGAUGACUUCGAAGAGUGCUUGCUUCGGUACAAAACGAUGAGGCGAAUGCAU: 0.337 ratio
ACAGUUAUAUUGUUGAGUUUCAUUUUCAUAUAUUCUUGUAGUGUCUGCUUGCCUGUGACUUCUGGUAAAAUAAAAUAUUAAAAUUACAAUAUUUUAGCAUGGUAUUUUUCUAAAAAUAAA: 0.868 ratio
AGAUUCCCUCUCUUAAAACCUCCUCCGAAGUUGGAGUCUCUUACAGAUGCCUCAUCCCCUGUUAGCGUUUUAGUUUGGACCACCCAGCCUUGGACGAUUCCCGCCAACCAGGCAAUUUGC: 0.682 ratio
CGCUGGCCCAAGCUGAUGUAAAUGUUUGGCCUCCAUCUCUCAGGCACGUGUGCCUUCUCUUAGUCCCUGUUUUCGGGAUGUUAUGAAUCUCAGUACUGUGGUUUGAAAGCAGUUAUGUUG: 0.244 ratio
GUUGCCAGCUUCCGGUUCCGUUGGGCUAGCAAGCUCCCUGAGCUACGUGUCUCUACGCUCUCAAUCCGCCAUCCAACAAACAUGGAUGAUCAGGUAAAGUUUGUGGAGCCCAGCCGGCAG: 0.0835 ratio
GAAUCCUACUCAGGCGGAUUUUGCAACACCAAGCUCACAGCAGCAGCAUCUUAGUCACAGUAGGGUAGCUUUAGGGCAAUAUUGCCAGGGUUUUAUUCACAUGCAGGUUUGGAAAAUGUA: 6.68 ratio
CAGCUGCAGACAGAAAAGGAUGAGAAGGAACUUUAUAAGGUACAUUUGAAGAAUACAGAAAUAGAAAAUACGAAGCUUGUGUCAGAGAUACAGACUUUAAAGAAUUUAGAUGGGAACAAA: 4.09 ratio
GGCCUGGGACCGUCCUGGGCUAGUACAAAUAGCGGCAGUGGAGGCUCGAGAGGAAAGUUUGUUAGUGGAGGCAGUGGAGAGGUCGUCCAUGUACGGUCUUUACACGAAUAGAUGUGUUCU: 0.63 ratio
CACACACUCUUCUGCGGGACCCUCAUCUUGCAGGCCCGGGCCUAUGUGGGACCGCACGUCCUGGCAGUGGUGACUCGCACAGGGUUCUGCACAGCCAAAGGGGGCCUGGUGAGCUCCAUC: 0.0948 ratio
UAAGUUAUUUUGUACAGCUUUGUAAAUUCUUAACAUUAAUUUGUAAACAUGUUUAUUUUGUUUGGGUGCUUUAUUAAAUUAAGUACAUAGCUAAGGUAAUGAACAUCUUUUUCAGUAAUU: 0.447 ratio
UUAUCCAAGACUCAACGAAAGACUCCAACGGUUAUUCAUAAACAUUAUCAAAUUCAUCGGAUUCGACAUUUUUACAUGAGAAAAGUCAAAUUUACUCAACAGAAUUACCAUGACAGACUG: 0.148 ratio

Series 6 — method: aptamer microarray, sandwich; form: DNA with 2'F-ANA; sample: in vitro; tested at: 200 nM; added: Cy3 exosite-II aptamer, 400 nM; direction: higher = stronger binding; quantity: mean fluorescence intensity; strand: GGTTGGTGTGGTTGG
Target: Prothrombin, mature alpha-thrombin (F2, Homo sapiens, UniProt P00734)
Setting: whole 15-mer aptamer, many near background
2'F-ANA at 6 12 15: 814 a.u.
2'F-ANA at 2 3 5 6 8 10 11 13 14 15: 54.5 a.u.
2'F-ANA at 1 5 7 10 11 12 14: 48.1 a.u.
2'F-ANA at 1 7 9 12 13 14 15: 116 a.u.
2'F-ANA at 3 4 6 8 9 12 14: 307 a.u.
2'F-ANA at 1 2 3 8 11 12 14 15: 104 a.u.
2'F-ANA at 1 3 4 8 10 11 13: 53.2 a.u.
2'F-ANA at 3 4 6 10 15: 253 a.u.
2'F-ANA at 2 4 10 11 12: 127 a.u.
2'F-ANA at 1 3 4 5 6 7 8 9 10 11 13 15: 52.1 a.u.
2'F-ANA at 2 4 7 8 9 13 14 15: 94.4 a.u.
2'F-ANA at 1 2 4 7 8 9 11: 118 a.u.
2'F-ANA at 4 5 7 9 12 15: 130 a.u.
2'F-ANA at 2 5 6 10 11 12 14 15: 49.2 a.u.
2'F-ANA at 5 8 9: 90.8 a.u.
2'F-ANA at 3 4 6 7 8 10 11 13 14: 164 a.u.
2'F-ANA at 2 3 4 6 7 11 13 14: 219 a.u.
2'F-ANA at 3 5 9 10 13 14 15: 49.2 a.u.
2'F-ANA at 3 4 6 7 8 10 11 12 14: 171 a.u.
2'F-ANA at 3 6 9 12 13 14: 516 a.u.
2'F-ANA at 3 4 6 11 12 13 15: 580 a.u.
2'F-ANA at 1 2 4 5 10 12 13 14: 45.8 a.u.
2'F-ANA at 1 4 5 7 8 9 14: 59.7 a.u.
2'F-ANA at 1 3 4 5 7 11 12 15: 207 a.u.
